Measurements pooled from the literature.
A part holds a random share of what one study measured. Values joined by “and” are separate records of one study, mostly repeats; a detail may differ.

Study 1
Organism: Sarcocystis neurona
Effect on: parasite growth
Tested at: 10 µM
Time: 96 h
Baseline: untreated
Compound	log2 fold change
CC(C)(C)NCC(O)c1cc(O)cc(O)c1 (stereo not shown)	0.51
CC(=O)NC[C@H]1CN(c2ccc(N3CCOCC3)c(F)c2)C(=O)O1	-0.05
C=CC[C@@H]1/C=C(\C)C[C@H](C)C[C@H](OC)[C@H]2O[C@@](O)(C(=O)C(=O)N3CCCC[C@H]3C(=O)O[C@H](/C(C)=C/[C@@H]3CC[C@@H](O)[C@H](OC)C3)[C@H](C)[C@@H](O)CC1=O)[C@H](C)C[C@@H]2OC	-0.46
COC(=O)Nc1nc2ccc(C(=O)c3ccccc3)cc2[nH]1	0.72
CCOc1cc(N)c(Cl)cc1C(=O)NCC1CN(Cc2ccc(F)cc2)CCO1 (stereo not shown)	-0.98
Oc1ccc(C2CNCCc3c2cc(O)c(O)c3Cl)cc1 (stereo not shown)	0.28
CC(C)(C)NCC(O)COc1cccc2c1CC(O)C(O)C2 (stereo not shown)	0.33
CC(C)(C)C(O)/C=C/c1ccc2c(c1)OCO2 (stereo not shown)	0.43
CCCCNc1cc(C(=O)O)cc(S(N)(=O)=O)c1Oc1ccccc1	0.32
c1ccc(CC2=NCCN2)cc1	0.36
CCCNCC(O)COc1ccccc1C(=O)CCc1ccccc1 (stereo not shown)	-1.55
CC(C)NCC(O)c1cc(O)cc(O)c1 (stereo not shown)	0.3
CC(=O)O[C@@]12CO[C@@H]1C[C@H](O)[C@@]1(C)C(=O)[C@H](O)C3=C(C)[C@@H](OC(=O)[C@H](O)[C@@H](NC(=O)OC(C)(C)C)c4ccccc4)C[C@@](O)([C@@H](OC(=O)c4ccccc4)[C@H]21)C3(C)C	-1.07

Study 2
Structure (SMILES): COc1cc(C(=O)OCCCN2CCCN(CCCOC(=O)c3cc(OC)c(OC)c(OC)c3)CC2)cc(OC)c1OC
Method: von Frey test
assay	system	setting	paw withdrawal threshold
mechanical pain	mouse, STZ diabetic neuropathy	intravenous, 30 mg/kg, 3 h post-dose, third injection	0.23 g and 0.13 g and 0.27 g and 0.33 g and 0.11 g
mechanical pain	mouse, STZ diabetic neuropathy	intravenous, 30 mg/kg, 1 h post-dose, first injection, day 8	0.29 g and 0.4 g and 0.23 g and 0.51 g and 0.02 g
mechanical pain	mouse, STZ diabetic neuropathy	intravenous, 30 mg/kg, 1 h post-dose, third injection	0.23 g and 0.03 g and 0.12 g and 0.29 g and 0.27 g
–	mouse, CFA inflammatory pain	subcutaneous, 10 mg/kg, 24 h post-dose, third injection, day 5	0.23 g and 0.19 g and 0.11 g and 0.29 g
–	mouse, CFA inflammatory pain	intravenous, dose not given, 3 h post-dose, first injection, day 1	0.23 g and 0.44 g and 0.29 g and 0.4 g and 0.32 g
–	mouse, CFA inflammatory pain	intravenous, dose not given, baseline before CFA	1.56 g and 0.98 g and 1.3 g and 0.65 g and 0.75 g

Study 3
Target: Ribosomal protein S6 kinase beta-2 (RPS6KB2, Homo sapiens, UniProt Q9UBS0)
Sequence of UniProt Q9UBS0 (whole entry, looked up): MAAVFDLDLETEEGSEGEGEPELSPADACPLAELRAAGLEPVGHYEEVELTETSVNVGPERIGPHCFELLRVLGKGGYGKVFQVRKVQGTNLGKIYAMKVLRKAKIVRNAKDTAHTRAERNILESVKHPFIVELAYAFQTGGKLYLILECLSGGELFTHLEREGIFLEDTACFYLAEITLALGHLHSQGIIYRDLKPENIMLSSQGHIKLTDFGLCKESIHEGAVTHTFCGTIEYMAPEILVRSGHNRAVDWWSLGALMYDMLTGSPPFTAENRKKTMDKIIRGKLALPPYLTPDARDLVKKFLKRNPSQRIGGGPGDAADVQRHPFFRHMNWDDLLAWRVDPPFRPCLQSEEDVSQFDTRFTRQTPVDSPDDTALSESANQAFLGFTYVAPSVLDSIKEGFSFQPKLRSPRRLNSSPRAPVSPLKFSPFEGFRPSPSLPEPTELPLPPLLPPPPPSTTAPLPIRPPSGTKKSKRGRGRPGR
Effect on: enzyme activity
Action: inhibitor
Tested at: 0.5 µM
Baseline: control
Compound	remaining activity
Clc1ccc(Nc2nnc(Cc3ccncc3)c3ccccc23)cc1	101%
CC(C)n1cnc2c(Nc3cccc(Cl)c3)nc(NCCO)nc21	97%
CC(C)N(CCC(=O)c1ccc2ccccc2c1)Cc1ccccc1	94.3%
COc1cc2c(N3CCN(C(=O)Nc4ccc(OC(C)C)cc4)CC3)ncnc2cc1OCCCN1CCCCC1	102%
Nc1nc(Nc2ccc(S(N)(=O)=O)cc2)nn1C(=S)Nc1c(F)cccc1F	96.2%
O=C(O)/C=C/c1cc(Br)c(Br)c(Br)c1Br	93.8%
CC(C)(C)c1nc2c3cc[nH]c(=O)c3c3cc(F)ccc3c2[nH]1	102%
NC(=O)c1ccc(-c2nc(-c3ccc4c(c3)OCCO4)c(-c3ccccn3)[nH]2)cc1	100%
O=C1NC(=O)/C(=C/c2ccc3c(c2)OC(F)(F)O3)S1	101%
CCN(CC)CCCCN1c2ccccc2Oc2ccc(Cl)cc21	107%
O=C(c1ccccc1)c1ccc(N2CCOCC2)cc1O	100%
C[C@@H](N)[C@H]1CC[C@H](C(=O)Nc2ccncc2)CC1	93.5%

Study 4
Cell line: normal organoid sample G
Method: CellTiter-Glo
Species: human
Sample: normal-adjacent epithelium
Tested at: 1 µM
Baseline: DMSO
SMILES	viability
Cc1ccc2[nH]c(CNCCCc3ccncc3)cc(=O)c2c1	98.3%
CN(C)[C@@H]1CCN(c2cc(-c3ccccc3)nc3ccnn23)C1	118%
C[C@H](c1cccc(C#N)c1)n1cc(Cl)cc(C(N)=O)c1=N	101%
Cn1cc(Cl)c2c(Oc3c(F)cc(Nc4cc(Cl)nc(N)n4)cc3F)ccnc21	110%
O=C(NNS(=O)(=O)c1ccccc1)c1cc(-c2ccnnc2)ccc1F	104%
O=C1c2ccc(Nc3ccc(F)cc3F)cc2CCc2ccc(OC[C@H](O)CO)cc21	125%
CNC(=O)c1cc(C(=O)N[C@H]2[C@@H]3COC[C@@H]32)cc2c1O[C@@H](CF)[C@@H]2c1ccccc1	93.6%
Cn1cnc2c(F)c(Nc3ccc(Br)cc3Cl)c(C(=O)NOCCO)cc21	67.8%
CN(C(=O)c1ccccc1)c1cc(N(C)c2ccc3c(c2)CCc2ccc(C(=O)NCCN4CCOCC4)cc2C3=O)ccc1F	105%
Cc1c(NC(=O)c2ccc(C(C)(C)C)cc2)cccc1-c1cn(C)c(=O)c(Nc2ccc(C(=O)N3CCOCC3)cc2)n1	102%
Cc1c(N2CCCC2)nc2ccc(Br)cc2c1C(=O)NC[C@H](CCC(=O)O)c1ccccc1Cl	98.9%
c1ccc2oc(-c3csc(C4CCN(Cc5nc6ncccc6[nH]5)CC4)n3)cc2c1	64.1%
N#CC1(c2ccccn2)CCN(Cc2cc(C(=O)N3CCCC3)c(=O)n3ccccc23)CC1	116%
O=C(O)c1ccc(-c2c[nH]c3ncc(-c4ccccc4)cc23)cc1C1CCCC1	111%
O=C(Nc1cnc(Oc2ccc(F)cc2)nc1)N1CCc2ncccc2[C@@H]1c1ccc(F)cc1	116%
CO[C@H]1CC[C@H](CNc2ccc(S(=O)(=O)NC(=O)c3ccc(N4CCN(CC5=C(c6ccc(Cl)cc6)CC(C)(C)CC5)CC4)cc3Oc3cnc4[nH]ccc4c3)cc2[N+](=O)[O-])CC1	104%
Cc1nc(C2CCN(C(=O)c3ccc(OC(F)(F)F)cc3N)CC2)c2ncc(N3CCN(C)CC3)cc2n1	112%
CN1CCN(c2cnc3c(C4CCN(C(=O)c5ccc(OC(F)(F)F)cc5N)CC4)ncnc3c2)CC1	110%
